Published values from different studies.
Protocols differ between the studies behind these lines. ± marks the error that the study gave.
Cell line: MCF7

SMILES | read-out | method | sample | time | setting | IC50
COc1ccc2cc3[n+](cc2c1OCc1cn(Cc2ccccc2)nn1)CCc1cc2c(cc1-3)OCO2 | cell growth or viability | MTT | – | – | – | 77.9 µM
N#C[CH2][Pd]1[O]c2ccccc2C=Nc2cccnc2[N]1Cc1ccccc1 | cell growth or viability | MTT | – | 48 h | – | 20.8 µM
NS(=O)(=O)c1ccc(/N=N/c2ccc(O)c(/C=N/c3cccc(O)c3)c2)cc1 | cell growth or viability | MTT | – | 48 h | – | 25.4 µM
CC(=O)[O][Ag]=[c]1n(C)ccn1CC(O)c1ccccc1 (stereo not drawn) | cell growth or viability | MTT | – | 72 h | – | 18.3 µM
O=C(CCl)Sc1nnc(-c2n[nH]c(=O)c3ccccc23)o1 | cell growth or viability | MTT | – | 48 h | – | 5 µM
CSC(S)(NN)NN=C(C)c1ccc(S(=O)(=O)N2CCC(C)CC2)cc1 (stereo not drawn) | cell growth | MTT | – | – | – | 24.6 to 122 µM
C[C@@H]1O[C@@H](OC(=O)/C=C/c2ccc(O)cc2)[C@H](OC(=O)/C=C/c2ccc(O)cc2)[C@H](O)[C@H]1O | cell growth or viability | MTT | – | 48 h | serum-free | 4.95 µM
O=C(CNc1nnc(-c2ccccc2)s1)N1CCC(=C2c3ncccc3CCc3cc(Cl)cc(Br)c32)CC1 | cell growth or viability | SRB | – | – | – | 110 µM
CC[C@H](CC[C@@H](C)[C@H]1CC[C@H]2[C@@H]3[C@@H](O)C=C4C[C@@H](O)CC[C@]4(C)[C@H]3CC[C@]12C)C(C)C | cell growth or viability | MTT | – | – | – | > 30 µM
Cc1ccc(-c2noc(-c3cccs3)c2C(F)(F)F)cc1 | cell growth or viability | MTT | – | 48 h | – | 24.2 µM
O=C1CCCC2=C1C(c1cccs1)c1c([nH]c(=S)[nH]c1=S)O2 (stereo not drawn) | cell growth or viability | MTT | – | 72 h | – | 15.2 µM
NC(=S)NNC(=O)c1cc2c(ccc3ccccc32)oc1=O | cell growth or viability | SRB | – | 72 h | – | 9.3 µM
CCCN1CCN(CC(=O)N2CCN(c3cc(C)nc4ncnn34)CC2)CC1 | cell growth or viability | MTT | – | – | – | 53.9 µM
Cc1cc(C)c(C[n+]2cn(C3CCCC3)c3ccccc32)c(C)c1 | cell growth or viability | MTT | – | 48 h | – | 22 µM
CSc1nc(Nc2ccc(/C(C)=N/NC(=O)c3ccccc3)cc2)c(C#N)c(-c2ccccc2)n1 | cell growth or viability | MTT | – | 48 h | – | 32.2 µM
CC(=O)N[C@H](CCCNC(=N)N)C(=O)N[C@@H](CC(=O)N[C@H](Cc1ccccc1)C(N)=O)c1ccc2ccccc2c1 | cell growth or viability | ATP luminescence | – | 72 h | – | 5.11 µM
COC(=O)CNc1cc(C[S+]([O-])c2ccc3cc(Br)ccc3c2)ccc1OC (stereo not drawn) | cell growth or viability | MTS | – | 48 h | – | 1.73 µM
CCCCn1c(-c2cccnc2)nc(-c2ccc(C)cc2)c1-c1ccc(C)cc1 | cell growth or viability | SRB | – | 24 h | – | 81.7 µM
C=C[C@H](OC(C)=O)c1ccc(OC(C)=O)cc1 | cell growth or viability | MTT | – | 24 h | – | 30 µM
CC(=O)N1N=C(C)CC1c1ccccc1 (stereo not drawn) | cell growth or viability | LDH | – | 48 h | – | 6.2 µM
NS(=O)(=O)c1ccc(/N=N/c2ccc(O)c(/C=N/c3cc([N+](=O)[O-])ccc3O)c2)cc1 | cell growth or viability | MTT | – | 48 h | – | 9.28 µM
CCOC(=O)C1=C(COCc2cn(CCN3C(=O)C(=O)c4cc(Cl)ccc43)nn2)N=C2Sc3ccccc3N2C1c1cccc(Cl)c1 (stereo not drawn) | cell growth or viability | MTT | – | – | – | > 100 µM
COc1ccc(-c2noc(NC(=O)c3ccc(F)c(C(F)(F)F)c3)c2C#N)c(OC)c1 | cell growth or viability | MTT | – | 72 h | – | 14 µM
Cc1c(C)c(C)[c-](C)c1C.Fc1c[c-]c(-c2ccccn2)cc1.[Cl-].[Ir+3] | – | SRB | – | 24 h | 72 h recovery | 4.8 ± 0.3 µM
O=C(NCCCCCCCNc1n[n+]([O-])c2ccccc2[n+]1[O-])C(F)(F)F | cytotoxicity | MTT | 10% FBS medium | 6 h + 18 h | hypoxia 3% O2 | 42.2 ± 0.3 µM
CN1CCC2(CC1)C/C(=N\NC(=O)Nc1ccc([N+](=O)[O-])cc1)c1ccccc1O2 | cell growth or viability | MTT | – | 48 h | – | 10.8 µM
N=C(N)NCCC[C@@H](N)C(=O)N[C@@H](CC(=O)N[C@H](Cc1ccccc1)C(=O)N[C@H](CC(=O)O)C(N)=O)c1ccc2ccccc2c1 | cell growth or viability | ATP luminescence | – | 72 h | – | > 100 µM

SMILES | read-out | method | sample | time | setting | IC50
COc1c(O)cc2oc3cc(O)c(CC=C(C)C)c(O)c3c(=O)c2c1CC=C(C)C | cell growth or viability | – | – | 48 h | – | 10.8 µM
CC(C)=CCC1=C([O-])C(=O)c2ccccc2C1=O.CC(C)=CCC1=C([O-])C(=O)c2ccccc2C1=O.[Cu+2].c1ccc(-c2ccccn2)nc1 | cell viability | MTT | – | 24 h | – | 31.9 ± 1.5 µM
CC(=NN=c1sc(C(=O)c2ccccc2)nn1-c1ccccc1)c1ccc(S(=O)(=O)N2CCC(C)CC2)cc1 | cell growth | MTT | – | – | – | 3.3 to 4.3 µM
CCCCCCCCCCCCCCCOC(=O)/C=C/c1ccc(O)cc1 | cell viability | MTT | – | 48 h | serum-free medium | 0.97 ± 0.1 µg/mL
C=CCc1ccc(OCc2nnc(SCC(=O)Nc3ccc(F)cc3F)o2)c(OC)c1 | cell growth or viability | MTT | – | 72 h | – | 2.87 µM
COc1ccccc1CNC[C@@](O)(COCc1ccccc1)[C@@H]1CC[C@@H](C)C[C@H]1OCc1ccccc1 | cell growth or viability | MTT | – | 72 h | – | 1.6 µM
O=C(CCc1nc2cc(Cl)ccc2[nH]c1=O)Nc1ccc(F)cc1 | cell growth or viability | MTT | – | – | – | 80.4 µM
CCOc1cccc(/C=N/Cc2ccccn2)c1O | cell growth or viability | MTT | – | 48 h | – | 79.6 µM
Cc1ccc(S(=O)(=O)[O][Re-2]2(=[C]=O)(=[C]=O)(=[C]=O)[n+]3c(C)cc(-c4ccccc4)c4ccc5c(-c6ccccc6)cc(C)[n+]2c5c43)cc1 | cell growth or viability | resazurin | – | 72 h | – | 0.337 µM
C/C1=C/C[C@H]2[C@@H]3[C@@H]([C@@]4(C)CO4)CC[C@@]3(C)CC[C@]2(C)C[C@H]2[C@@H](C)CC[C@@H]12 | cell growth or viability | MTT | – | 72 h | – | 30 µM
CCN1C(=O)CS/C1=N/N=C(\C)c1c(O)c2ccccc2oc1=O | cell growth or viability | MTT | – | 48 h | – | 24.2 µM
Cc1cccc2c1NC(=O)C21C2=C(COC2=O)NC2=C1C(=O)c1ccccc1C2=O (stereo not drawn) | cell growth or viability | MTT | – | 72 h | – | 18.8 µM
CC(=O)OC[C@H]1O[C@@H](n2nc(-c3cc4ccccc4[nH]3)n(-c3ccc(Cl)cc3)c2=S)[C@H](OC(C)=O)[C@@H](OC(C)=O)[C@@H]1OC(C)=O | cell growth or viability | MTT | – | – | – | 17.3 µM
CCCCCCCCOc1c(O)cc(C(=O)O[C@@H]2Cc3c(O)cc(O)cc3O[C@@H]2c2cc(O)c(O)c(O)c2)cc1O | cell growth or viability | CCK-8 | – | 24 h | – | 156 µM
COc1ccc2c(c1)OCc1c-2oc2cc3c(cc12)OCO3 | cell growth or viability | MTT | – | 72 h | – | 21.1 µM
C1=CCC=C1.[Cl][Au-]1([Cl])[N+](=P(c2ccccc2)(c2ccccc2)[c-]2cccc2)Cc2cccc[n+]21.[Fe+2].[O-][Cl+3]([O-])([O-])[O-] | cell growth or viability | MTT | – | 74 h | – | 40 µM
CC(C)c1cccc(C(C)C)c1-n1ccn(-c2c(C(C)C)cccc2C(C)C)c1=[Se].[Cl][Ag] | cell growth or viability | MTT | – | 72 h | – | 3.8 µM
CCCC(CCC)C(=O)[O][Pt]1([O]C(=O)C(CCC)CCC)[O]C(=O)C(=O)[O]1.NC1CCCCC1N | cytotoxicity | – | – | 72 h | – | 5.7 ± 0.9 µM
CCC(C(=O)O)C1CCC(C)C(C(C)C(O)C(C)C(=O)C(CC)C2OC3(C=CC(NCc4cn(CCCO)nn4)C4(CCC(C)(C5CCC(O)(CC)C(C)O5)O4)O3)C(C)CC2C)O1 (stereo not drawn) | cell growth or viability | resazurin | – | 72 h | – | 2.48 µM
COc1ccc2cc3[n+](cc2c1OCc1cn(Cc2ccc(C(C)(C)C)cc2)nn1)CCc1cc2c(cc1-3)OCO2 | cell growth or viability | MTT | – | – | – | 15.8 µM
O=C(NCCCCNc1n[n+]([O-])c2ccccc2[n+]1[O-])C(F)(F)F | cytotoxicity | MTT | 10% FBS medium | 6 h + 18 h | hypoxia 3% O2 | 35.7 ± 7.9 µM
C=C(C)[C@@H]1CC[C@]2(COC(=O)CCC(=O)O)CC[C@]3(C)[C@H](CC[C@@H]4[C@@]5(C)CC[C@H](OC(=O)CCC(=O)O)C(C)(C)[C@@H]5CC[C@]43C)[C@@H]12 | cell growth or viability | SRB | – | 72 h | – | 7.26 µg/mL
CCCCCCCCCCn1c(-c2cccnc2)nc(-c2ccc(C)cc2)c1-c1ccc(C)cc1 | cell growth or viability | SRB | – | 48 h | – | > 100 µM
COc1ccc(CNC[C@](O)(COCc2ccccc2)[C@@H]2CC[C@@H](C)C[C@H]2OCc2ccccc2)cc1 | cell growth or viability | MTT | – | 72 h | – | 1.5 µM
C[C@]12CC/C(=N\OCCN3CCOCC3)C=C1CCC1C2CC[C@]2(C)/C(=C/c3ccccn3)CCC12 (stereo partly drawn) | cell growth or viability | MTT | – | 72 h | – | > 100 µM
COc1c(O)cc2oc3cc4c(c(O)c3c(=O)c2c1CCC(C)C)CC(O)O4 (stereo not drawn) | cell growth or viability | – | – | 48 h | – | 18 µM
CCC1=C(CC)C2=[N+]3C1=Cc1c(CC)c(CC)c4[n]1[Ir-3]31([c]3n(C(C)C)cc[n+]3C(C)C)([c]3n(C(C)C)cc[n+]3C(C)C)[n]3c(c(CC)c(CC)c3=CC3=[N+]1C(=C4)C(CC)=C3CC)=C2.F[P-](F)(F)(F)(F)F | cell growth or viability | MTT | – | 72 h | – | 0.73 µM

For quick reference, copied from above:
SMILES | read-out | method | sample | time | setting | IC50
O=C(CCl)Sc1nnc(-c2n[nH]c(=O)c3ccccc23)o1 | cell growth or viability | MTT | – | 48 h | – | 5 µM
CSC(S)(NN)NN=C(C)c1ccc(S(=O)(=O)N2CCC(C)CC2)cc1 (stereo not drawn) | cell growth | MTT | – | – | – | 24.6 to 122 µM
C[C@@H]1O[C@@H](OC(=O)/C=C/c2ccc(O)cc2)[C@H](OC(=O)/C=C/c2ccc(O)cc2)[C@H](O)[C@H]1O | cell growth or viability | MTT | – | 48 h | serum-free | 4.95 µM
O=C(CNc1nnc(-c2ccccc2)s1)N1CCC(=C2c3ncccc3CCc3cc(Cl)cc(Br)c32)CC1 | cell growth or viability | SRB | – | – | – | 110 µM
CC[C@H](CC[C@@H](C)[C@H]1CC[C@H]2[C@@H]3[C@@H](O)C=C4C[C@@H](O)CC[C@]4(C)[C@H]3CC[C@]12C)C(C)C | cell growth or viability | MTT | – | – | – | > 30 µM
Cc1ccc(-c2noc(-c3cccs3)c2C(F)(F)F)cc1 | cell growth or viability | MTT | – | 48 h | – | 24.2 µM
O=C1CCCC2=C1C(c1cccs1)c1c([nH]c(=S)[nH]c1=S)O2 (stereo not drawn) | cell growth or viability | MTT | – | 72 h | – | 15.2 µM
